Measured values gathered from unrelated publications.
Lines come from different studies, so protocols differ.
AR: Androgen receptor (AR, Homo sapiens, UniProt P10275)

Compound	target	test	system	conditions	scale	quantity	result
Clc1ccc(-c2ccc(Cl)cc2Cl)cc1	AR	reporter gene, antagonist		40 µM, added: DHT 2 nM	reference: DHT 2 nM	maximum activity	12%
c1ccc(C(NCCNC(c2ccccc2)c2ccccc2)c2ccccc2)cc1	AR	binding		10 µM, Eurofins selectivity panel, added: testosterone		inhibition	62%
C[C@]12CC[C@H]3[C@@H](CCC4=CC(=O)CC[C@@]43C)[C@@H]1C[C@@H](O)[C@@H]2O	AR		cells	concentration not given		activity	inactive
Oc1ccc(-c2ccc(Cl)cc2)c(Cl)c1	AR	reporter gene, antagonist		24 h, added: DHT 2 nM		IC25	300 nM
COCc1c(-c2cc3cc(C)cc(OC)c3s2)c2c(N)ncnn2c1CN1CCNC(=O)C1	AR	binding, radioligand binding		10 µM		inhibition	12%
NC(=O)c1cc(N2CC2)c([N+](=O)[O-])cc1[N+](=O)[O-]	Androgen receptor (AR, Homo sapiens, UniProt P10275, Q868H)	reporter gene, antagonist		added: R1881 2 nM		IC50	inactive
CC(C)CC(=O)OC[C@H]1O[C@@](C#N)(c2ccc3c(N)ncnn23)[C@H](O)[C@@H]1O	AR			20 µM		inhibition	13%
CCC(=O)N[C@H](CCCCl)C(=O)N1C(=O)C=C(OC)[C@@H]1CCCCl	Androgen receptor (AR, Homo sapiens, UniProt P10275, T878A)		LNCaP	10 µM		activity	inactive
Clc1ccc(Cl)c(-c2ccccc2Cl)c1	AR	reporter gene, antagonist		24 h, added: DHT 2 nM		IC25	400 nM

For quick reference, copied from above:
Compound	target	test	system	conditions	scale	quantity	result
c1ccc(C(NCCNC(c2ccccc2)c2ccccc2)c2ccccc2)cc1	AR	binding		10 µM, Eurofins selectivity panel, added: testosterone		inhibition	62%
